Experimental data pooled from the literature.
Lines come from different studies, so protocols differ. Several values in a cell are separate wells, animals, samples, runs or records.
KCNH2: Voltage-gated inwardly rectifying potassium channel KCNH2 (KCNH2, Homo sapiens, UniProt Q12809)
HLA class I histocompatibility antigen, B alpha chain: HLA class I histocompatibility antigen, B alpha chain (Homo sapiens, UniProt P01889)
PFF0160c: Dihydroorotate dehydrogenase (quinone), mitochondrial (PFF0160c, Plasmodium falciparum, UniProt Q08210)
PFF0160c E182D: Dihydroorotate dehydrogenase (quinone), mitochondrial (PFF0160c, Plasmodium falciparum, UniProt Q08210, E182D)
Sialidase-3: Sialidase-3 (Homo sapiens, UniProt Q9UQ49)

SMILES = CCN(C)C(=O)Oc1ccc(CCC(=O)N2CCN(Cc3ccccc3)CC2)cc1OC; tested on = Cholinesterase (BCHE, Equus caballus, UniProt P81908); test = enzyme activity, inhibitor, Ellman; measurement = IC50; value = 10.8 µM
SMILES = Nc1ncc(-c2nc(N3CCOCC3)nc(N3CCOCC3)n2)c(C(F)F)n1; tested on = PIK3C2B (Homo sapiens, UniProt O00750); test = binding, competition with immobilised ligand; setting = 10 µM; measurement = remaining binding; value = 0.75%
SMILES = CN1C(=O)Cc2ccc(F)c(CCNC[C@H]3CN(c4ccc5c(n4)NC(=O)CO5)C(=O)O3)c21; tested on = KCNH2; test = ion current, inhibitor, patch clamp; setting = 2 min, pH 7.4; measurement = IC50; value = 25 µM
SMILES = CC(C)[C@H](NC(=O)[C@H](Cc1ccccc1)NC(=O)[C@H](CCCNC(=N)N)NC(=O)[C@H](CC(=O)O)NC(=O)[C@H](Cc1ccc(O)cc1)NC(=O)[C@@H](NC(=O)[C@@H](N)CCCCN)C(C)C)C(=O)N[C@@H](Cc1c[nH]cn1)C(=O)N[C@@H](Cc1ccccc1)C(=O)O; tested on = HLA class I histocompatibility antigen, B alpha chain; test = cell-free assay; measurement = IC50; value = 14.5 µM
SMILES = Cn1nc2c(=O)n(C3CC3)ccc2c1[C@](O)(c1ccc(F)c(Cl)c1)C(F)(F)F; tested on = PFF0160c; test = enzyme activity, inhibitor; measurement = IC50; value = 0.0126 µM
SMILES = Cc1cc(Nc2ccc(Cl)c(Cl)c2)n2nc(C)nc2n1; tested on = PFF0160c E182D; test = enzyme activity, inhibitor, absorbance; measurement = IC50; value = 1.68 µM
SMILES = CCn1cc(C)c2c([C@H](N)c3ccc(C(F)(F)F)nc3)n(C)nc2c1=O; tested on = PFF0160c; test = enzyme activity, inhibitor; measurement = IC50; value = 0.251 µM
SMILES = COC(=O)c1cc(-c2cccc(NC(=O)Nc3ccccc3)c2)on1; tested on = Klebsiella pneumoniae; test = microbial growth, broth dilution; system = BAA1705; measurement = MIC; value = > 64 µg/mL
SMILES = O=C(O)C1=C[C@H](O)[C@@H](NCc2ccc(-c3ccccc3)cc2)[C@H]([C@H](O)[C@H](O)CO)O1; tested on = Sialidase-3; test = enzyme activity, inhibitor; measurement = IC50; value = > 500 µM
SMILES = [2H]c1c([2H])c([C@]2([2H])CCCN2C(=O)C(C)(C)Oc2ccc3cn[nH]c3c2)c([2H])c([2H])c1C([2H])([2H])[2H]; tested on = BRSK2 (Homo sapiens, UniProt Q8IWQ3); test = binding, competition with immobilised ligand; setting = 1 µM; measurement = remaining binding; value = 85%
SMILES = COc1cc(CCC(=O)N2CCC(Cc3ccccc3)CC2)ccc1OC(=O)N1CCOCC1; tested on = Cholinesterase (BCHE, Equus caballus, UniProt P81908); test = enzyme activity, inhibitor, Ellman; measurement = IC50; value = 4.6 µM
SMILES = CC(C)n1ccc2c(Cc3ccc(C(F)(F)F)nc3)n(C)nc2c1=O; tested on = PFF0160c; test = enzyme activity, inhibitor; measurement = IC50; value = 12.6 µM
SMILES = O=C(Nc1cccc(Cl)c1Cl)Nc1ccnc2ccccc12; tested on = PFF0160c; test = enzyme activity, inhibitor, absorbance; measurement = IC50; value = 1.54 µM
SMILES = CCCCCc1cn([C@H]2[C@H]([C@H](O)[C@H](O)CO)OC(C(=O)O)=C[C@@H]2O)nn1; tested on = Sialidase-3; test = enzyme activity, inhibitor; measurement = IC50; value = > 500 µM
SMILES = Cc1cn(C2CC2)c(=O)c2nn(C)c(Cc3ccc(C(F)(F)F)nc3)c12; tested on = PFF0160c; test = enzyme activity, inhibitor; measurement = IC50; value = 0.0794 µM
SMILES = NCCCC[C@H](N)C(=O)O; tested on = dapA (Escherichia coli K-12, UniProt P0A6L2); test = enzyme activity, inhibitor; measurement = IC50; value = 820 µM and 800 µM
SMILES = C[C@@H]1CN(c2ccc(O)c(NS(=O)(=O)c3ccc(-c4ccco4)cc3)c2)C[C@H](C)N1; tested on = PFF0160c; test = enzyme activity, inhibitor, absorbance; measurement = IC50; value = 6 µM
SMILES = CC(C)C[C@H](NC(=O)[C@H](Cc1ccccc1)NC(=O)[C@H](Cc1ccc(O)cc1)NC(=O)CNC(=O)[C@H](CCCCN)NC(=O)[C@H](CO)NC(=O)[C@H](CCC(N)=O)NC(=O)CNC(=O)[C@@H](NC(=O)[C@H](CO)NC(=O)[C@@H]1CCCN1C(=O)[C@H](CO)NC(=O)[C@H](CCC(N)=O)NC(=O)[C@H](Cc1ccc(O)cc1)NC(=O)[C@H](CCC(=O)O)NC(=O)[C@H](C)NC(=O)[C@H](CCCCN)NC(=O)[C@@H](N)Cc1ccccc1)C(C)C)C(=O)N[C@@H](Cc1ccccc1)C(=O)N[C@@H](CCCNC(=N)N)C(=O)N1CCC[C@H]1C(=O)N[C@@H](CCCNC(=N)N)C(=O)N[C@@H](CC(N)=O)C(N)=O; tested on = NMUR2 (Homo sapiens, UniProt Q9GZQ4); test = ligand displacement, radioligand; measurement = IC50; value = 4.07e-05 µM
SMILES = CCn1cc(C)c2c(Cc3ccc(C(F)(F)F)nc3)n(C)nc2c1=O; tested on = PFF0160c; test = enzyme activity, inhibitor; measurement = IC50; value = 0.0631 µM
SMILES = CC(C)C[C@H](NC(=O)[C@@H](N)Cc1c[nH]cn1)C(=O)N[C@@H](Cc1ccccc1)C(=O)N1CCC[C@H]1C(=O)N[C@@H](CCCNC(=N)N)C(=O)N[C@H](C(=O)N[C@@H](Cc1c[nH]cn1)C(=O)N[C@@H](Cc1ccc(O)cc1)C(=O)N[C@@H](Cc1ccccc1)C(=O)O)[C@@H](C)O; tested on = HLA class I histocompatibility antigen, B alpha chain; test = cell-free assay; measurement = IC50; value = 47.4 µM
SMILES = COc1ccc(-n2ccnc2SCC(=O)Nc2cc(C(F)(F)F)ccc2Cl)c(OC)c1; tested on = PFF0160c; test = enzyme activity, inhibitor, absorbance; measurement = IC50; value = 0.0554 µM
SMILES = COc1ccc2c3c([nH]c2c1)CCN(C)CC3; tested on = Voltage-dependent N-type calcium channel subunit alpha-1B (Homo sapiens, UniProt Q00975); test = ion current, inhibitor, patch clamp; measurement = IC50; value = 262 µM and > 180 µM
SMILES = COC(=O)c1cc(-c2cccc(NC(=S)Nc3cccc(Br)c3)c2)on1; tested on = Klebsiella pneumoniae; test = microbial growth, broth dilution; system = BAA1705; measurement = MIC; value = > 64 µg/mL
SMILES = CC(NC(=O)c1ccc(-n2cnc3ccccc32)cc1)c1ccc(S(N)(=O)=O)cc1 (centres unmarked); tested on = PFF0160c E182D; test = enzyme activity, inhibitor, absorbance; measurement = IC50; value = 3.41 µM
SMILES = Cn1c(=O)cnc2ccc(F)c(CCNC[C@H]3CN(c4cnc5c(n4)NC(=O)CO5)C(=O)O3)c21; tested on = gyrA (Escherichia coli K-12, UniProt P0AES4); test = enzyme activity, inhibitor; measurement = IC50; value = 0.011 µM
SMILES = CC(C)C[C@H]1C(=O)N2CCC[C@H]2[C@]2(O)O[C@](NC(=O)[C@@H]3C=C4c5cccc6[nH]c(Br)c(c56)C[C@H]4[N+](C)(C)C3)(C(C)C)C(=O)N12; tested on = KCNH2; test = ion current, inhibitor, patch clamp; system = CHO-KI; setting = pH 7.4; measurement = IC50; value = 7.4 µM
SMILES = CCN(CC)C(=O)Oc1ccc(CCC(=O)N2CCC(Cc3ccccc3)CC2)cc1OC; tested on = Cholinesterase (BCHE, Homo sapiens, UniProt P06276); test = enzyme activity, inhibitor, Ellman; measurement = IC50; value = 5.6 µM
SMILES = Cc1noc(-c2cccs2)c1C(=O)NCCc1cccc(Cl)c1; tested on = PFF0160c E182D; test = enzyme activity, inhibitor, absorbance; measurement = IC50; value = 4.12 µM
SMILES = CC(C)C[C@H](NC(=O)[C@H](CCC(=O)O)NC(=O)[C@H](CC(C)C)NC(=O)[C@@H]1CCCN1C(=O)[C@H](CCCCN)NC(=O)[C@H](CO)NC(=O)[C@H](Cc1ccc(O)cc1)NC(=O)[C@@H](NC(=O)[C@@H](N)Cc1ccc(O)cc1)[C@@H](C)O)C(=O)O; tested on = HLA class I histocompatibility antigen, B alpha chain; test = cell-free assay; measurement = IC50; value = 2.35 µM
SMILES = CCCN(Cc1nnc(-c2cccs2)o1)C(=O)C1COc2ccccc2O1 (centres unmarked); tested on = PFF0160c E182D; test = enzyme activity, inhibitor, absorbance; measurement = IC50; value = 2.14 µM
SMILES = CCn1cc(Cl)c2c(Cc3ccc(N4CCN(C)CC4)nc3)n(C)nc2c1=O; tested on = PFF0160c; test = enzyme activity, inhibitor; measurement = IC50; value = 1.58 µM
SMILES = CC(C)CCN[C@H]1[C@H]([C@H](O)[C@H](O)CO)OC(C(=O)O)=C[C@@H]1O; tested on = Sialidase-4 (Homo sapiens, UniProt Q8WWR8); test = enzyme activity, inhibitor; measurement = IC50; value = 210 µM
SMILES = c1csc(-c2nnc3sc(Cc4ccc5c(c4)CCCC5)nn23)c1; tested on = PFF0160c; test = enzyme activity, inhibitor, absorbance; measurement = IC50; value = 0.581 µM
SMILES = CCCCCCN[C@H]1[C@H]([C@H](O)[C@H](O)CO)OC(C(=O)O)=C[C@@H]1O; tested on = Sialidase-3; test = enzyme activity, inhibitor; measurement = IC50; value = 430 µM
SMILES = CC(C)C[C@H](NC(=O)[C@H]1O[C@@H]1C(=O)O)C(=O)NCCCCN=C(N)N; tested on = Papain (Carica papaya, UniProt P00784); test = enzyme activity, inhibitor; measurement = IC50; value = 6e-05 µM

Some of these lines once more:
SMILES = CCCN(Cc1nnc(-c2cccs2)o1)C(=O)C1COc2ccccc2O1 (centres unmarked); tested on = PFF0160c E182D; test = enzyme activity, inhibitor, absorbance; measurement = IC50; value = 2.14 µM
SMILES = CCn1cc(C)c2c([C@H](N)c3ccc(C(F)(F)F)nc3)n(C)nc2c1=O; tested on = PFF0160c; test = enzyme activity, inhibitor; measurement = IC50; value = 0.251 µM
SMILES = CC(C)CCN[C@H]1[C@H]([C@H](O)[C@H](O)CO)OC(C(=O)O)=C[C@@H]1O; tested on = Sialidase-4 (Homo sapiens, UniProt Q8WWR8); test = enzyme activity, inhibitor; measurement = IC50; value = 210 µM
